Measurements of several laboratories.
Numbered parts are unrelated; each lists some results of a single study. Substitutions count along the parent as printed.

Block 1
Target: Ras GTPase-activating protein-binding protein 1, RRM domain (G3BP1, Homo sapiens, UniProt Q13283)
Sequence of UniProt Q13283 (whole entry, looked up): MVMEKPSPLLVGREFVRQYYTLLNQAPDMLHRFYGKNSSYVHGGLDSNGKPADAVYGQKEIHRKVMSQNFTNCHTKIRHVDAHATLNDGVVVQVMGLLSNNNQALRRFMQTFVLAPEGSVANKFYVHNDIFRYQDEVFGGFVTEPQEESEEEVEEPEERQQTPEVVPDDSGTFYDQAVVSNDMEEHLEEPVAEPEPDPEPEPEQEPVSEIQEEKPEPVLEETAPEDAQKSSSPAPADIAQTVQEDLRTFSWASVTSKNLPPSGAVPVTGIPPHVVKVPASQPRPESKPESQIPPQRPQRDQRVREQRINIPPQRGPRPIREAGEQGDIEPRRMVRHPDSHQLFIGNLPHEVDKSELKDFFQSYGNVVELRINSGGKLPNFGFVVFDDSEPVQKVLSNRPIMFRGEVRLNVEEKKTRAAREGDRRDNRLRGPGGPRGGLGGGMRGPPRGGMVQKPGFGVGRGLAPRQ
Method: RNA Bind-n-Seq
Molecule type: RNA
Matrix: in vitro
Concentration: 1 µM
Notes: whole 134-nt RNA, ends assumed
Added: 150 mM KCl
Relative to: input library
Reading: higher = stronger binding
Measurement: log2 enrichment
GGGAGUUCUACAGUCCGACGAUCCACAGACAACACGCACCCACACAGACACAGAGGGAAGGGGUUGGGAUGGGGACAGGGUGCACAGCAGGGCGGGGUAGGACUCCAGCCCCUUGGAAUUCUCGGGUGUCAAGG: -0.314
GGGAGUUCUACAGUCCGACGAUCACCAUGCAGGUGGGCAUCUUUGGGAAGUGGGGCAAGGGGGGGAUAGGGAGGGGGGUAACACUUUGGGAACACGUGGUCCCAGGUCGUUUCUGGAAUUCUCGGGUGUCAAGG: 0.953
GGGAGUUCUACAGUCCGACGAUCCCUGUGCUACACAUCGUAUGUACCGAAUCGGGGUUUUUUUGGGGUUUUUUUGGGGAGGGGAAAGUAUUAUGUUACGCCGUUCGGAUCUGCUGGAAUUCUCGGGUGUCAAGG: 0.263
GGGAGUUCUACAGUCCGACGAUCCUCAAGUCCUGUGCUACACAUCGUAUGUACCGAAUCGGAGGUUUUUUUGGUGGAAAGUAUUAUGUUACGCCGUUCGGAUCUGCACUUCCAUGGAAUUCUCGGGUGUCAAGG: -0.277
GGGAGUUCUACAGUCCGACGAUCUCCUGUGCUACACAUCGUAUGUACCGAAUCGGAAAAAAGGGAAAAAAGGGAAAAAAGGGAAAGUAUUAUGUUACGCCGUUCGGAUCUGCAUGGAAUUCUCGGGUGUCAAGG: 0.061
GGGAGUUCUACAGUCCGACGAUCUUCCUCAAGUCCUGUGCUACACAUCGUAUGUACCGAAUCGGUGGUGGUGGAAAGUAUUAUGUUACGCCGUUCGGAUCUGCACUUCCAGCAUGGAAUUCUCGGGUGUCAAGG: -0.201
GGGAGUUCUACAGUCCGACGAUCGCAGGAAGUAAAAACCAAUGGAAAUGCUUCGGAUAGUGGCAGGGGUGGGGGUUGCUAAGGAAAGGGUGGGAUGGGAGUGGGUAAAGAGUUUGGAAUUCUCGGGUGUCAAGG: 1.51
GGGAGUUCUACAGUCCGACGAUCAGUGGGUUUGUUGAAGCAGUUGCUGGUGCAACAGCUAGGUUUGACUGAGAAGAGCGUUCAGGAAGACUGGCAACAUUUCCCAAGAUACAGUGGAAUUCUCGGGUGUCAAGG: -0.257
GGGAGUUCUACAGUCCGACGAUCCAAGUCCUGUGCUACACAUCGUAUGUACCGAAUCGGUUUGGGUUUGGGUUUGGGGAAAGUAUUAUGUUACGCCGUUCGGAUCUGCACUUCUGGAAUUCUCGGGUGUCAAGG: -0.287

Block 2
Target: Histone acetyltransferase KAT6A, both winged helices, GST fusion (KAT6A, Homo sapiens, UniProt Q92794, residues 1-181)
Method: protein binding microarray
Molecule type: double-stranded DNA, one strand shown
Matrix: in vitro
Concentration: not given
Notes: 8-mer, flanks averaged, mean of 2 arrays, mostly near background
Relative to: not given
Reading: higher = stronger binding
Measurement: E-score
Construct (chain): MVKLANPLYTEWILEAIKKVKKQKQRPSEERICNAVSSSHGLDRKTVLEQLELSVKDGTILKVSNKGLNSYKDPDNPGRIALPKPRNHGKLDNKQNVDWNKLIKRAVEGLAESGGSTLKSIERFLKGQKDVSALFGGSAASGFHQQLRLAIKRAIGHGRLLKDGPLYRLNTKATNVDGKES
CCAGGTCG: -0.173
GGAAGACC: -0.00621
GGCTTAAA: 0.0464
ACATAGGA: -0.109
AAACGAAG: -0.0865
GACCTATC: -0.0886
GAGGGGTA: -0.183
GCGACCTA: 0.091
ACCGAACA: -0.00653
AGCGGCAT: 0.295
ACTGCCTG: -0.0383
GCTAACTA: 0.019
CTCCGCAC: 0.0718
CAAGTCAG: -0.157
CCTAATAC: -0.137
GGGGAACC: -0.105
CGTTATAG: -0.0747

Block 3
Target: Centromere-binding protein 1, full length, N-terminal tag (CBF1, Saccharomyces cerevisiae, UniProt P17106, residues 1-351)
Sequence of UniProt P17106 (whole entry, looked up): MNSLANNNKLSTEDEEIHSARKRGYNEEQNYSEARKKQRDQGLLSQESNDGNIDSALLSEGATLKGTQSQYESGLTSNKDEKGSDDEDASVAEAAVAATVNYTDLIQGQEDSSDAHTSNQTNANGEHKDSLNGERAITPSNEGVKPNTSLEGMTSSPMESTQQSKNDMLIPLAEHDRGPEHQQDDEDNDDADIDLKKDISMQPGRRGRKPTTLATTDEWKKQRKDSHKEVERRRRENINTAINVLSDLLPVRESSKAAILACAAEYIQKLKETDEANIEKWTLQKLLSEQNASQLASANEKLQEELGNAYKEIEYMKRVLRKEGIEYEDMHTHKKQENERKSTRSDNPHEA
Method: protein-binding microarray
Molecule type: double-stranded DNA, one strand shown
Matrix: in vitro
Concentration: 0.8 µM
Notes: whole 60-bp probe, no competitor
Reading: higher = stronger binding
Measurement: fluorescence intensity
CTAAATAAATAAAATCATCAGAATCATTCGTAATTCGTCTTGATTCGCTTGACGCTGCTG: 468 a.u.
CTAGATAGTTGTGCCTGTACCACGTGAGAAGGCTTCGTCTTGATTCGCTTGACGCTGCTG: 7050 a.u.
GAACAAACACATTTGTAGGTGATGATGACAGCTTAGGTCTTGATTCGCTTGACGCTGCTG: 500 a.u.
GAATAGTATTAAAAAAACGTGTATACGTTATTGTAGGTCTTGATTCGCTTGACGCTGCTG: 696 a.u.
CTAACTTAGGATGCTGATGTCACATAAAGTCAGTTCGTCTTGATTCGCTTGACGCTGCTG: 552 a.u.
GAAGATGAGTAGGTTAGCGTCACCTAGTGGCGGTAGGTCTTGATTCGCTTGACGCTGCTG: 487 a.u.
CTAAATTTTTACACTGGTGACAACCTTAATGGTTTCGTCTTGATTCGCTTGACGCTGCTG: 515 a.u.
GAATACAGTTAGCTGCACATGTTTCTCGAATAGTAGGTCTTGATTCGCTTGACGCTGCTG: 686 a.u.
GAAACAATTATTAGCCATCAGTACTTCTCTTTTTAGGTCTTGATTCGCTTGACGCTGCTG: 484 a.u.
GAAATGTAAAGCGCGCACGTAGTAAGTGACGAGTAGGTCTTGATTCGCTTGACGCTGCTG: 550 a.u.
GAATATCAAGCAGATCTGGTGAAATTTTAAACATAGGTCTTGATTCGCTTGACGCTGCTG: 502 a.u.
CTAGCAAGATCGTATCAGGAGAATGAACGGGTCTTCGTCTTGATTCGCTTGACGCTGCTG: 529 a.u.
GAATGTCTGCAGCCACGTGCAAAGTACGGTCGTTAGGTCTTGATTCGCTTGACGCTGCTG: 4630 a.u.
GAATGTTGAAGATATTGCGTGAAAATGTGAAGATAGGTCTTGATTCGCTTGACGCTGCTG: 633 a.u.
CTACTTGGAGGAGGTGGTGGAGGCGGAAGGAATTTCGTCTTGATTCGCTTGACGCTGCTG: 496 a.u.
GAAATAGTCTTCTATCTGATGCTTTCGTACTCTTAGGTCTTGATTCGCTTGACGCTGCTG: 514 a.u.
GAATAATGAGGTGCTCACGTTTTGCAATGATGATAGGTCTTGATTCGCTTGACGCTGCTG: 786 a.u.
GAACATAGTATATGTAACATCAATGATGCTGGGTAGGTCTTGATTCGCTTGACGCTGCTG: 519 a.u.
CTAAAACTTGAAAGTCTGGTGAGATTAGATATCTTCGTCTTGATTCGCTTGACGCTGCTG: 490 a.u.

Block 4
Target: CCNA1, cyclin fold, Cln2 fusion (human)
Method: yeast growth competition, sequencing
Matrix: yeast
Notes: weak parent motif
Relative to: not given
Reading: higher = stronger binding
Measurement: normalised enrichment score
Parent: RBL1 docking peptide (human); GSAKRRLFGEDPP
GSAKRRLFGECPP [D11C]: 0.577
GSAKRRIFGEDPP [L7I]: 0.842
GSAKRRLFGESPP [D11S]: 0.565
GSACRRLFGEDPP [K4C]: 0.335
GSAKRRLFGEDPK [P13K]: 0.273
GSAKRRLFGEDPN [P13N]: 0.63
GSAKRRNFGEDPP [L7N]: 0.521
GSAKRRLFGEDVP [P12V]: 0.676

Further values, each from its own experiment
PhoQ, residues 284 288 289 292 302 303 TNSAEL  fold induction (PhoP, residues 12 14 15 18 19 NHFIF (Escherichia coli, UniProt P23836); Sort-seq, item: YFP reporter; E. coli; PhoQ-PhoP variant library, added: 10 µM Mg2+; relative to: high Mg2+ state, higher = stronger signaling): 13.3

For quick reference, copied from above (block 3):
GAATATCAAGCAGATCTGGTGAAATTTTAAACATAGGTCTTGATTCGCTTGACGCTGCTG: 502 a.u.
CTAGCAAGATCGTATCAGGAGAATGAACGGGTCTTCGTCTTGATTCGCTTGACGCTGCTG: 529 a.u.
GAATGTCTGCAGCCACGTGCAAAGTACGGTCGTTAGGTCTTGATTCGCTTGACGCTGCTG: 4630 a.u.
